Measurements collected from several papers.
A part holds a random share of what one study measured.

Sample 1
Target: Centromere-binding protein 1, full length, His-tagged (CBF1, Saccharomyces cerevisiae, UniProt P17106, residues 1-351)
Sequence of UniProt P17106 (whole entry, looked up): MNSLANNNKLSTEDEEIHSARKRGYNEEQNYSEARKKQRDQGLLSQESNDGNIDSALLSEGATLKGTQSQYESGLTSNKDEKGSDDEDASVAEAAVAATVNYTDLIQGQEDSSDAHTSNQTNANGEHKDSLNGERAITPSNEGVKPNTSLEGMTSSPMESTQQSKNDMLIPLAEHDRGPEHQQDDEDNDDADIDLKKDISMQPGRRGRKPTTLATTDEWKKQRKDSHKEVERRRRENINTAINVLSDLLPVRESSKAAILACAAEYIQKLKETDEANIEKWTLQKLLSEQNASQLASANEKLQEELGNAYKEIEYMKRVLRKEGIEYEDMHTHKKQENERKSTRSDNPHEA
Technique: competition protein-binding microarray
Form: double-stranded DNA, one strand shown
Medium: in vitro
Concentration: 2 µM
Notes: whole 60-bp probe, lowest competitor level
Together with: Pho4 competitor, 0.05 µM
Direction: higher = stronger binding
Quantity: fluorescence intensity
Strand = GTCTTGTCTCATTTTCACGTGTGTTTCCCCACTTCAGTCTTGATTCGCTTGACGCTGCTG; value = 605 a.u.
Strand = AAAGGACCATTTAGGTACGTGGGACCGCAAAGGTTCGTCTTGATTCGCTTGACGCTGCTG; value = 56.3 a.u.
Strand = ATACGAACCATCCATCACGTGCAAAGACAAACCCTAGTCTTGATTCGCTTGACGCTGCTG; value = 4560 a.u.
Strand = AGCATATCCGCTGTTCACATGATACGGTCTAGGATTGTCTTGATTCGCTTGACGCTGCTG; value = 282 a.u.

Sample 2
Target: Protein C-ets-1 (ETS1, Homo sapiens, UniProt P14921, residues 1-441, full length assumed)
Sequence of UniProt P14921 (whole entry, looked up): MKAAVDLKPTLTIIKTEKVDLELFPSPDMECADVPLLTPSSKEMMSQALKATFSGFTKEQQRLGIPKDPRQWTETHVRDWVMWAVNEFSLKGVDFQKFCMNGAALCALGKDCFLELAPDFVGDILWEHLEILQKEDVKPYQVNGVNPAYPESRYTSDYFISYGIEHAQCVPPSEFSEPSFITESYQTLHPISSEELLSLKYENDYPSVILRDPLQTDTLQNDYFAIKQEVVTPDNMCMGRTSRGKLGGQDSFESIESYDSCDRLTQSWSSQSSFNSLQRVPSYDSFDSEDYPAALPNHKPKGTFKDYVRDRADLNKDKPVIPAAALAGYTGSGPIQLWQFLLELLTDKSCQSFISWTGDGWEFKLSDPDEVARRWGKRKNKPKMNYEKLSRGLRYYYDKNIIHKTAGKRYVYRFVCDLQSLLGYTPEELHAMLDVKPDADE
Technique: protein-binding microarray
Form: double-stranded DNA, one strand shown
Medium: in vitro
Concentration: not given
Notes: k-mer, scored over probes, only values ≥0.25
Direction: higher = stronger binding
Quantity: E-score
Strand = TACGGAAA; value = 0.399
Strand = CTCAGGAA; value = 0.298
Strand = CGGAAATC; value = 0.475
Strand = CACTTCCG; value = 0.491
Strand = CTACCGGC; value = 0.27

Sample 3
Target: Histone acetyltransferase KAT6A, both winged helices, GST fusion (KAT6A, Homo sapiens, UniProt Q92794, residues 1-181)
Technique: protein binding microarray
Form: double-stranded DNA, one strand shown
Medium: in vitro
Concentration: not given
Notes: 8-mer, flanks averaged, mean of 2 arrays, mostly near background
Baseline: not given
Direction: higher = stronger binding
Quantity: E-score
Residues (chain): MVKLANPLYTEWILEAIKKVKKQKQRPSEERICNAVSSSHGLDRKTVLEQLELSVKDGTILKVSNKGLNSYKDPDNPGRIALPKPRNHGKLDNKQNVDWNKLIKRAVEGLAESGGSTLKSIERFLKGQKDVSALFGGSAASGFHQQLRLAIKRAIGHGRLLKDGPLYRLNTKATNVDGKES
Strand = CTGGACGA; value = -0.12
Strand = GGTGGCAC; value = -0.0658
Strand = TAGTCGGA; value = 0.161
Strand = CTTCGTCA; value = -0.117

Other studies, line by line
Substance = PhoQ, residues 284 288 289 292 302 303 TVTVVA; target = PhoP, residues 12 14 15 18 19 HLGGL (Escherichia coli, UniProt P23836); test = Sort-seq, refers to: YFP reporter; test system = E. coli; conditions = PhoQ-PhoP variant library, together with: 10 µM Mg2+; scale = baseline: high Mg2+ state, higher = stronger signaling; quantity = fold induction; value = 2.34

For quick reference, copied from above (sample 1):
Strand = GTCTTGTCTCATTTTCACGTGTGTTTCCCCACTTCAGTCTTGATTCGCTTGACGCTGCTG; value = 605 a.u.
